# Measurements collected from several papers.
# Compare with care: the assays were run in different laboratories. ± marks the error that the study gave. No end group written: not given here.
Molecule,test,system,conditions,how to read,quantity,result
CCN(CC)CCNC(=O)c1c(C)[nH]c(/C=C2\C(=O)Nc3ccc(F)cc32)c1C,,"human, plasma","oral, 15 mg/m2, day 7",,maximum trough plasma concentration,50.4 ng/mL
CCCOc1ccc(S(=O)(=O)NCCC2CCCN2C)cc1-c1nc2c(CCC)nn(C)c2c(=O)[nH]1 (stereo not shown),,human adolescents after Fontan palliation,"oral, dose not given, 5 days, all dose cohorts",,subjects with drug-related abdominal discomfort,7%
CS(=O)(=O)Nc1ccc(C(=O)O[C@@H](Cc2c(Cl)c[n+]([O-])cc2Cl)c2ccc(OC(F)F)c(OCC3CC3)c2)cc1OCC1CC1,,"human, plasma","inhaled, 2400 µg twice daily, day 1, multi-dose dry powder inhaler",,Cmax,1.23 ng/mL
C[N+]1(CC(=O)OC2CCCCC2)CCCCC1.[I-],metabolic stability,"human, liver microsomes","1 µM, pH 7.4",,half-life,> 1 h
COc1ccc(-c2oc3c(OC)c(OC)c(OC)c(O)c3c(=O)c2OC)cc1OC,,"C57BL/6 mouse, male, feces","oral, 1% w/w in diet, 6 weeks, orange peel extract diet",reference: content in orange peel,tissue to peel content ratio,101%
Cc1nc2cccc(OCC(C)(C)C(=O)NC(C)C)c2c(N)c1C(=O)O,,"male Sprague-Dawley rat, plasma","intravenous, 1 mg/kg, single dose",,Cmax,2040 ng/mL
Cc1cccc(C)c1OCC(=O)N[C@@H](Cc1ccccc1)[C@@H](O)C[C@H](Cc1ccccc1)NC(=O)[C@H](C(C)C)N1CCCNC1=O,modified PAMPA Franz cell,phosphate buffer with HPMCAS,"stock 20 mg/mL, 3 h, 25 °C, 839 nm system, 300 rpm, together with: 3% BSA receiver",,free drug permeability,19.6 ± 0.1 ×10⁻⁶ cm/s
C[C@]12CC[C@@H]3c4ccc(O)cc4CC[C@H]3[C@@H]1C[C@@H](O)[C@@H]2O,GC-MS,"breast cancer women on NSAI, serum","vaginal, 0.03 mg daily, 4 h, day 28",,median serum concentration,0 ng/mL
O=C1CN(/N=C/c2ccc(-c3ccc([N+](=O)[O-])cc3)o2)C(O)=N1,,"Sprague-Dawley rat, male, liver","oral, 100 mg/kg, 24 h, single low dose",direction not given,hepatocyte necrosis score,0
COC(=O)C[C@](O)(CCCC(C)(C)O)C(=O)O[C@@H]1C(OC)=C[C@]23CCCN2CCc2cc4c(cc2[C@H]13)OCO4,,"CD1 mouse, spleen","oral, 1 mg/kg, 24 h, below quantification limit 1.00 ng/mL",,tissue concentration,not detected
Cn1cnc2c(F)c(Nc3ccc(Br)cc3Cl)c(C(=O)NOCCO)cc21,,"nude mice with A-375 tumours, plasma","oral, 10 mg/kg once daily, 7 days, steady state",,CL/F,10 mL/min/kg
COc1ccc(CCN2CCC(Nc3nc4ccccc4n3Cc3ccc(F)cc3)CC2)cc1,,1-octanol/PBS,pH 7.4,,logP,5
C#C[C@]1(CO)O[C@@H](n2cnc3c(N)nc(F)nc32)C[C@@H]1O,,"human, plasma","oral, 30 mg, single dose, fasted",,AUC(0-inf),3.91 µM·h
O=C(O)/C=C/c1ccccc1,,rat plasma QC sample,"1024 ng/mL nominal, 15 days, -80 °C, high QC level storage stability",,measured concentration,1030 ± 47.9 ng/mL
OC[C@H]1O[C@@H](c2ccc(F)c(Cc3cc4ccccc4s3)c2)[C@H](O)[C@@H](O)[C@@H]1O,,"Wistar rat, male, kidney","oral, dose not given, 1 h",reference: kidney over plasma concentration,tissue/plasma ratio,1420 ± 405
Cn1c(-c2ccc(C(N)=O)cc2F)nnc1C(C)(C)Oc1c(F)cc(Cl)cc1F,,"healthy young Japanese subjects, plasma","oral, 50 mg once daily, day 18, 14 days dosing",,Cmax median,856 ng/mL
Nc1ccn([C@@H]2O[C@H](CO)[C@@H](O)C2(F)F)c(=O)n1,,THU-treated rat plasma,"12.00 ng/mL, 2 months, -80 °C, frozen storage, low QC",,measured concentration,10.6 ± 1.3 ng/mL
Cc1[nH]c(=O)c(CNC(=O)c2cc([N+](=O)[O-])co2)c2c1CCCC2,U-HPLC,20% DMSO in water,,,kinetic solubility,178 µg/mL
COc1cccc(N2CCN(C3=Nc4c(F)cccc4[C@H](CC(=O)O)N3c3cc(C(F)(F)F)ccc3OC)CC2)c1,UHPLC-MS/MS,"healthy women, plasma","intravenous infusion, 120 mg single dose, 30 min infusion, HPβCD formulation",,terminal half-life,12.2 ± 4.32 h
COc1cccc2c1C(=O)c1c(O)c3c(c(O)c1C2=O)C[C@@](O)(C(=O)CO)C[C@@H]3O[C@H]1C[C@H](N)[C@H](O)[C@H](C)O1,,"mouse, E0771 tumour-bearing, heart","intravenous, 92 µmol/kg",,terminal half-life,34 h
CNCc1ccc(-c2[nH]c3cc(F)cc4c3c2CCNC4=O)cc1,,"human patients, plasma","oral, 40 mg once daily, day 1, 24 h, single dose, arithmetic mean",,AUC(0-t),915 ng·h/mL
"ACEQNPIYWARYAKWLFTTPLLLLKLALLVDADEGTG-OH (18F-labelled, C-acid)",reversed-phase C18 HPLC,,MeCN gradient in water with TFA,,HPLC retention time,15.8 min
COc1cc(/C=C/C(=O)CC(=O)/C=C/c2ccc(O)c(OC)c2)ccc1O,I-125 label,"C57BL/6J mouse, cerebellum","intranasal vs intraperitoneal, 10 µg/mouse IN, 100 µg/mouse IP, 8 h",reference: intranasal over intraperitoneal,brain uptake ratio,7.11
Oc1ccc2c3c(cnc2c1)-c1ccc(C(F)(F)F)cc1O[C@@H]3c1ccc(OCCN2CC(CF)C2)cc1,,"healthy fasted women, plasma","oral tablets, 400 mg",,AUC(0-tlast),1900 ng·h/mL
CCCC[C@H](NC(C)=O)C(=O)N[C@H]1CCC(=O)NC[C@@H](C(=O)N[C@@H](Cc2c[nH]c3ccccc23)C(N)=O)NC(=O)[C@H](CCCNC(=N)N)NC(=O)[C@@H](Cc2ccccc2)NC(=O)[C@H](Cc2c[nH]cn2)NC1=O,,"beagle dog, male, plasma","subcutaneous, 8.0 mg/kg daily, day 14",,Tmax,0.5 h
CO[C@H]1C[C@@H]2CC[C@@H](C)[C@@](O)(O2)C(=O)C(=O)N2CCCC[C@H]2C(=O)O[C@H]([C@H](C)C[C@@H]2CC[C@@H](O)[C@H](OC)C2)CC(=O)[C@H](C)/C=C(\C)[C@@H](O)[C@@H](OC)C(=O)[C@H](C)C[C@H](C)/C=C/C=C/C=C/1C,,"NOD/SCID mice, male, blood or plasma","intraperitoneal, 0.5 mg/kg every 48 h",,terminal half-life,13.6 h
[2H]C([2H])([2H])Oc1cc2c(cc1OC([2H])([2H])[2H])C1CC(=O)C(CC(C)C)CN1CC2 (stereo not shown),item: deuterated α-HTBZ,"healthy human volunteers, plasma","oral, 24 mg single dose, standard meal",,dose-normalized AUC(0-inf),16.7 ng·h/mL
CC[C@H](C)[C@@H]1NC(=O)[C@H](Cc2ccc(O)cc2)NC(=O)[C@@H](N)CSSC[C@@H](C(=O)N2CCC[C@H]2C(=O)N[C@@H](CC(C)C)C(=O)NCC(N)=O)NC(=O)[C@H](CC(N)=O)NC(=O)[C@H](CCC(N)=O)NC1=O,ELISA,"C57BL/6J male mice, wild type, plasma","intraperitoneal, 12 µg total, incremental area over baseline",,AUC above baseline,9900 ± 2150 pg·30 min/sample
CC(C)C[C@H]1C(=O)NCc2ccc([nH]2)CN[C@@H](Cc2ccccc2)C(=O)N[C@@H](C)C(=O)N1C,,PAMPA,"100 µM, 17 h, pH 6.4",,Papp,7.59 ×10⁻⁶ cm/s
CC[C@H](C)[C@H](NC(=O)[C@H](CCCNC(=N)N)NC(=O)[C@@H](NC(=O)CNC(C)=O)[C@@H](C)O)C(=O)N[C@H](C(=O)N[C@@H](Cc1ccc(O)cc1)C(=O)N[C@@H](CC(=O)O)C(=O)N[C@@H](CCCNC(=N)N)C(=O)N[C@@H](CCCCN)C(=O)N[C@@H](Cc1ccccc1)C(=O)N[C@@H](CC(C)C)C(=O)N[C@@H](CCSC)C(=O)N[C@@H](CCC(=O)O)C(=O)N[C@@H](CS)C(=O)N[C@@H](CCCNC(=N)N)C(=O)N[C@@H](CC(N)=O)C(N)=O)[C@@H](C)CC,CD spectroscopy,sodium phosphate buffer,"25 to 100 µM, pH 7.4, 25 °C",,helicity,16%
C[C@@H](O)[C@H]1C(=O)N2C(C(=O)O)=C(S[C@@H]3CN[C@H](C(=O)N(C)C)C3)[C@H](C)[C@H]12,microdialysis,"pig (Danish Landrace), cancellous bone","iv infusion, 1000 mg over 10 min, MIC 0.25 µg/mL, together with: vancomycin co-administered",,time above MIC,256 min
Cc1ccc(-c2ncc(Cl)cc2-c2ccc(S(C)(=O)=O)cc2)cn1,,"hip replacement patients, plasma","oral, 120 mg at 0 h and 24 h",,AUC(0-48 h),61000 ng·h/mL
COc1ccc(-c2cc(=O)c3cc(OC)c(OC)c(OC)c3o2)cc1OC,,"C57BL/6 mouse, male, small intestine","oral, 1% w/w in diet, 6 weeks, orange peel extract diet",reference: content in orange peel,tissue to peel content ratio,2.7%
CC(C)=CCC[C@](C)(O[C@@H]1O[C@H](CO)[C@@H](O)[C@H](O)[C@H]1O)[C@H]1CC[C@]2(C)[C@@H]1[C@H](O)C[C@@H]1[C@@]3(C)CC[C@H](O)C(C)(C)[C@@H]3[C@@H](O[C@@H]3O[C@H](CO)[C@@H](O)[C@H](O)[C@H]3O[C@@H]3O[C@@H](C)[C@H](O)[C@@H](O)[C@H]3O)C[C@]12C,,"rat, extracted plasma QC samples","0.1 µg/mL, 24 h, 15 °C, autosampler",,post-preparative stability accuracy,94.7 ± 7.5%

# Repeated from above:
Molecule,test,system,conditions,how to read,quantity,result
C[N+]1(CC(=O)OC2CCCCC2)CCCCC1.[I-],metabolic stability,"human, liver microsomes","1 µM, pH 7.4",,half-life,> 1 h
COc1ccc(-c2oc3c(OC)c(OC)c(OC)c(O)c3c(=O)c2OC)cc1OC,,"C57BL/6 mouse, male, feces","oral, 1% w/w in diet, 6 weeks, orange peel extract diet",reference: content in orange peel,tissue to peel content ratio,101%
Cc1nc2cccc(OCC(C)(C)C(=O)NC(C)C)c2c(N)c1C(=O)O,,"male Sprague-Dawley rat, plasma","intravenous, 1 mg/kg, single dose",,Cmax,2040 ng/mL
Cc1cccc(C)c1OCC(=O)N[C@@H](Cc1ccccc1)[C@@H](O)C[C@H](Cc1ccccc1)NC(=O)[C@H](C(C)C)N1CCCNC1=O,modified PAMPA Franz cell,phosphate buffer with HPMCAS,"stock 20 mg/mL, 3 h, 25 °C, 839 nm system, 300 rpm, together with: 3% BSA receiver",,free drug permeability,19.6 ± 0.1 ×10⁻⁶ cm/s
